Results pooled from the literature.
Every numbered part comes from another study and shows a few of its results, in no order.

Study 1
Target: Prothrombin, mature alpha-thrombin (F2, Homo sapiens, UniProt P00734)
Method: aptamer microarray, sandwich
Molecule type: DNA with 2'F-ANA
Matrix: in vitro
Concentration: 200 nM
Notes: whole 15-mer aptamer, many near background
With: Cy3 exosite-II aptamer, 400 nM
Reading: higher = stronger binding
Quantity: mean fluorescence intensity
Strand: GGTTGGTGTGGTTGG
Modification = 2'F-ANA at 3 8 9 11 15; result = 1020 a.u.
Modification = 2'F-ANA at 1 5 6 7 8 9 11 14; result = 50.1 a.u.
Modification = 2'F-ANA at 2 4 6 8 9 11 12 13; result = 279 a.u.
Modification = 2'F-ANA at 1 4 5 7 8 9 11 13 15; result = 50.3 a.u.
Modification = 2'F-ANA at 1 4 5 6 7 10 14 15; result = 62.6 a.u.
Modification = 2'F-ANA at 1 3 5 8 9 11 13 14 15; result = 48.5 a.u.
Modification = 2'F-ANA at 2 3 4 5 7 8 9 10 11 14 15; result = 51.3 a.u.
Modification = 2'F-ANA at 1 2 3 6 14 15; result = 66.7 a.u.
Modification = 2'F-ANA at 1 2 3 5 8; result = 64.6 a.u.
Modification = 2'F-ANA at 2 3 4 7 8 11 13 14; result = 347 a.u.
Modification = 2'F-ANA at 2 3 4 5 6 7 8 9 10 11 12 13; result = 82.5 a.u.
Modification = 2'F-ANA at 1 5 6 7 10 11 13 14 15; result = 50.1 a.u.
Modification = 2'F-ANA at 4 5 6 7 9 10 15; result = 97.7 a.u.
Modification = 2'F-ANA at 2 4 9 10 12 15; result = 143 a.u.
Modification = 2'F-ANA at 1 2 4 6 8 9 10 11 12; result = 54.7 a.u.
Modification = 2'F-ANA at 1 4 5 7 12 14 15; result = 48.5 a.u.
Modification = 2'F-ANA at 1 2 3 6 7 8 10 13 14; result = 55.6 a.u.
Modification = 2'F-ANA at 4 5 8 11 15; result = 55 a.u.
Modification = 2'F-ANA at 1 2 4 5 9 14 15; result = 49.6 a.u.
Modification = 2'F-ANA at 3 4 6 9 10 11 12 14 15; result = 163 a.u.
Modification = 2'F-ANA at 1 4 6 9 12 13 14 15; result = 51 a.u.
Modification = 2'F-ANA at 1 2 5 7 11 12 13; result = 76.6 a.u.
Modification = 2'F-ANA at 1 6 9 10 11 12 15; result = 64 a.u.
Modification = 2'F-ANA at 2 4 5 7 12 13 14; result = 45.6 a.u.
Modification = 2'F-ANA at 1 3 4 5 12 15; result = 108 a.u.

Study 2
Target: Ras GTPase-activating protein-binding protein 1, full length (G3BP1, Homo sapiens, UniProt Q13283)
Chain of UniProt Q13283 (whole entry, looked up): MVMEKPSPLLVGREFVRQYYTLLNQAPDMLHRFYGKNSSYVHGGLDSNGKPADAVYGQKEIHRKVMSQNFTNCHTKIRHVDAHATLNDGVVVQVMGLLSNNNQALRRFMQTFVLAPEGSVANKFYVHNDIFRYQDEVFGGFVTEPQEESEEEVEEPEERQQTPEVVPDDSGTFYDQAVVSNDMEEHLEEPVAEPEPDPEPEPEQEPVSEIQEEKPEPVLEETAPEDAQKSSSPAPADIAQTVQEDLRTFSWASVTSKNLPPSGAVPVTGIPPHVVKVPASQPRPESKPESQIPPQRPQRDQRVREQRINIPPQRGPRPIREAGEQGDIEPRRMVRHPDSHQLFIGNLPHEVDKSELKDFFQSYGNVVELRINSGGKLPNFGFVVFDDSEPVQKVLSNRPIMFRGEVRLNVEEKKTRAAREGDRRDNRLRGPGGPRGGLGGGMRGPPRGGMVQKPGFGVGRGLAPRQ
Method: RNA Bind-n-Seq
Molecule type: RNA
Matrix: in vitro
Concentration: 200 nM
Notes: whole 134-nt RNA, ends assumed
With: 150 mM LiCl
Relative to: input library
Reading: higher = stronger binding
Quantity: log2 enrichment
All molecules: 7-deaza-guanosine replaces G
Strand = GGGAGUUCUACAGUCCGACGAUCUGCCCCUGGUGGCAUGCGGGGAGGAAGAGGUGGCCUCAUGGAUCGUGGUGGUCCCGGUGGAAUGUUCAGAGGUGGCCGUGGUGGAGACAGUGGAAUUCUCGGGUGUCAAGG; result = -0.0789
Strand = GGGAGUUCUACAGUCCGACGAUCCAAGUCCUGUGCUACACAUCGUAUGUACCGAAUCGGGUGGGAAAGGGUUUUUGGGAAAGUAUUAUGUUACGCCGUUCGGAUCUGCACUUCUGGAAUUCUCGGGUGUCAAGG; result = -0.806
Strand = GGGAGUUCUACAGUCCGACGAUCACCAUGCAGGUGGGCAUCUUUGGGAAGUUGGGCAAGGGGGGGAUAGGGAGGGGGGUAACACUUUGGGAACAGGUGGUCCCAGGUCGUUUCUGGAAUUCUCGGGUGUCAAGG; result = 0.499
Strand = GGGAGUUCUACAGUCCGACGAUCUCCUGUGCUACACAUCGUAUGUACCGAAUCGGUUUUUUGGUUUUUUGGGGUUUUUUGGGAAAGUAUUAUGUUACGCCGUUCGGAUCUGCAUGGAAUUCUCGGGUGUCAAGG; result = 0.337
Strand = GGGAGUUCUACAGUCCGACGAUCUCAAGUCCUGUGCUACACAUCGUAUGUACCGAAUCGGGGCCGGGGCCGGCCGGGGAAAGUAUUAUGUUACGCCGUUCGGAUCUGCACUUCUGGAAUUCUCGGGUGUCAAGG; result = 0.39
Strand = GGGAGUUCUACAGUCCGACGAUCAGUCCUGUGCUACACAUCGUAUGUACCGAAUCGGGGAAAAGGGAAAAGGGAAAAGGGGAAAGUAUUAUGUUACGCCGUUCGGAUCUGCACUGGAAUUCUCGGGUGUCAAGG; result = 0.19
Strand = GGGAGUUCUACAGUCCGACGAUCCAAGUCCUGUGCUACACAUCGUAUGUACCGAAUCGGAAAAAAAGGUUUGGAAAGGAAAGUAUUAUGUUACGCCGUUCGGAUCUGCACUUCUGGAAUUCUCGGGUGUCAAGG; result = -1.61
Strand = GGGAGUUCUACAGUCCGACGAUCUUUGUCCCUGCUCAGGAUGAGACUUCUGUGAGCAGCGAGGAUUUUGAUAUGAGCGACUCCACAUGGAUGUCAGCUGACCCGCACCUGGCCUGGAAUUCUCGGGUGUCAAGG; result = -1.04

Study 3
Target: RNA binding protein fox-1 homolog 2, RRM domain, GST-SBP tag (RBFOX2, Homo sapiens, UniProt O43251-10, residues 100-194)
Method: RNA Bind-n-Seq
Molecule type: RNA
Matrix: in vitro
Concentration: 365 nM
Notes: natural RNA segment, single round, ends assumed
Relative to: no-protein control
Reading: higher = stronger binding
Quantity: RBNS enrichment (R)
Strand = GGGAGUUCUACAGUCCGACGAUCAAGAAUGGACUUAAGAAGUACUGCUGGGCAAGUGUGCUGAAAGUACAUUAACUGCUCAAAUACAAGGAAGUGGCCCAAUGAACAUGGUUGUGGGAGGGGAAAGGAGAAACUGGAAUUCUCGGGUGCCAA; result = 0.793
Strand = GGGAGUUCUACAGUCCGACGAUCGAGUACUUCGGCAAAUUCACUUUUUGUCUCACCUUCAUCAUAUGGCUCAGUGGUUAAGAGUACCUGUUGCUGUUGCAGAGGACCUGGAUUGGAUUCCCAGCACCCACUCAUGGAAUUCUCGGGUGCCAA; result = 0.448
Strand = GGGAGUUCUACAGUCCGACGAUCGGCUCUGAGCGAGGCCUCUUCCUGCUGGGCUCCCAGACUCCUGCAUCCAGGCCCCCACCUUCUCGGCUUCUGGUUUUUCUUUCUUUUUGGUAGAACACAACAUCUACCAUUGGAAUUCUCGGGUGCCAA; result = 1.11
Strand = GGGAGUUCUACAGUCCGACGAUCAAUUAACCAAGGUAGAAUGACCUUGUAAUGUAACUGCUCUUGGGCAAUAUUCUCUGUACAUAUUAGCGACAACAGAUUGGAUUUUAUGUUGACAUUUGUUUGGUUAUAGUUGGAAUUCUCGGGUGCCAA; result = 0.829
Strand = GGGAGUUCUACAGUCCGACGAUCGACUGCUCCACUUACCCCAGUGCUGGGGACAAGUUUCUGUUGAAACUUUAGAUAGCAGAAUUAUUUGCAAUUUGUAGCAUAGAAAAGAUUUUUAAAUUUUUUUACAAAAGUGGAAUUCUCGGGUGCCAA; result = 0.843
Strand = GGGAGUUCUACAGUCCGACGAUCAAUACAUUGUAGGAAAUCUUCAUAAUUGGAGAAAGUUCUGCAGCAUGGCUUUUUACGUCUGUAAAUAAAUAAUUUUAGAACAGCCUUUUUUUCUUCCAUAAACUACUAUUUGGAAUUCUCGGGUGCCAA; result = 0.681
Strand = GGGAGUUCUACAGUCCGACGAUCUUUACUGGCUUUCAUACUUAGCAUUCCAGUGAAAUGUUCUUAGACUCACCAGUGGACAAAUAAUAAGGCCUUUUUUUAUUAUUAUUUCUUGUCUUUUUUGAUCUAAUUUAUGGAAUUCUCGGGUGCCAA; result = 0.881
Strand = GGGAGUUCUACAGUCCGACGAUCCAUAAUAGCAUCUGUAAAAGUACAUCUUACACAUUAUAUAGAGGGUUCUUGUUUGAAAUUUUCAGUUCUCUUUAUCUUCCCAGUACCUCUUGGUCCUCAUAAUGGGCAAAUGGAAUUCUCGGGUGCCAA; result = 0.605
Strand = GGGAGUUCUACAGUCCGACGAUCAUAAAGACUUUCAAUCAUUUCAUUUUCAGACAACUGAAAUUUUGUUUAGUAUGUGAAUUCUUUUUUUGAAAUGUAUAGUGAAUAGGAUGUUGCACUGGUGGCAAUUCAUCUGGAAUUCUCGGGUGCCAA; result = 0.554

Study 4
Target: Interferon regulatory factor 7, full length, phosphomimetic (IRF7, Homo sapiens, UniProt Q92985, residues 1-503, S101K/S471D/S472D/S475D/S476D/S477D/S483D/S484D/S487D)
Method: protein-binding microarray
Molecule type: double-stranded DNA, one strand shown
Matrix: in vitro
Concentration: 250 nM
Notes: 60-bp whole probe
With: salmon DNA 0.4 mg/ml
Relative to: random background probes
Reading: higher = stronger binding
Quantity: log fluorescence
Constant ends, left off below: GCCTAGCAC … GTCTTGATTCGCTTGACGCTGCTG
Target sequence (chain): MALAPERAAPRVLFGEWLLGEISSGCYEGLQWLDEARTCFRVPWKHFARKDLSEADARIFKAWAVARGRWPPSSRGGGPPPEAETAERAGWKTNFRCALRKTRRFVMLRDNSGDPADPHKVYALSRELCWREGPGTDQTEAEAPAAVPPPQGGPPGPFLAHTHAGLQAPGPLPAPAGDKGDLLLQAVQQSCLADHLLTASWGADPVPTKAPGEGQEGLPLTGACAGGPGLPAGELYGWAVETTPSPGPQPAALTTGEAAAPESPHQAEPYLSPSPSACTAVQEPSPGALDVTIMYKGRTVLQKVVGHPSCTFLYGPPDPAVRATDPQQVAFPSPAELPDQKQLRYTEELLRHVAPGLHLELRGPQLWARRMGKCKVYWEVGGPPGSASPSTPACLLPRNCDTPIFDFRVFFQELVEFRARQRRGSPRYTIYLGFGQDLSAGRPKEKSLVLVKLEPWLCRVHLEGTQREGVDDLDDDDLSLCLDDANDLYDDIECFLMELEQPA
Strand = CATTTTCTCTTATTCTAACAGTGCTAG; result = 3.47 z-score
Strand = TCATTTTTAGAAATTTTTACTGTGCTA; result = 1.14 z-score
Strand = TGCTATACCACTCTTGCTTTGTGCTAG; result = 0.443 z-score
Strand = TTAGATATCGGGTTTTGATTAGTGCTA; result = 1.1 z-score
Strand = GACGGAATGGGGACTGGGGACGTGCTA; result = -0.261 z-score
Strand = TTTCTGATCCATTTTGGTTTGTGCTAG; result = 1.06 z-score
Strand = TCATCTGTTCTTTTCAGACTGTGCTAG; result = 0.673 z-score
Strand = GACGGTTTCGGACTGTGGACGTGCTAG; result = 5.14 z-score
Strand = TTAGGACTGGGGGTTCGGTTAGTGCTA; result = 1.06 z-score
Strand = CACGGTTTCGGACTGGGGACGTGCTAG; result = 4.27 z-score
Strand = GACGGACTGCCACTGCTGACGTGCTAG; result = -0.817 z-score
Strand = GACCTCGTCTCTATCAAAAAGTGCTAG; result = 0.984 z-score
Strand = AGGCTCATACATCTGGGTGGGTGCTAG; result = 0.33 z-score
Strand = TCAACTTTGCTCTGTGCGACTGTGCTA; result = -0.357 z-score
Strand = GACGAACTGGGGAATGGAGACGTGCTA; result = -0.224 z-score
Strand = GACGGTCTCCTTTTCCTGCCGTGCTAG; result = 1.05 z-score
Strand = GACGCACTGCTTATCCTGACGTGCTAG; result = -0.112 z-score
Strand = TTAGGTATCGGGTATCGGCTAGTGCTA; result = 0.491 z-score
